Measured values pooled from the literature.
± gives the spread as reported.

`COc1cccc(-c2n[nH]c(SCc3ccccn3)n2)c1OC` — result for “revertant colonies per plate”: 18 (Salmonella typhimurium; Ames test, plate incorporation; TA1535; 0.016 mg/plate, without S9).
With `O=[N+]([O-])c1ccc(N2CCC(NCCC(O)c3ccc(F)c4ccccc34)CC2)c(C(F)(F)F)c1` (stereo not drawn) the survival was 108% (Salmonella typhimurium; SOS/umu test; TA1535/pSK1002; 0.001 mg/mL, 4 h, without S9, lower range).
`Cc1cc(C(=O)NC(C)(C)COc2cccc3c2C(N)=NS(=O)(=O)N3)cc(C)n1` has a revertant ratio of 0.8 (Salmonella typhimurium; Ames test, initial; TA1537; 500 µg/plate, with: rat liver S9; reference: solvent control).
The survival of `OC(CCN1CC=C(c2ccc(F)cc2)CC1)c1ccc(F)c2ccccc12` (stereo not drawn) is reported as 87.6% (Salmonella typhimurium; SOS/umu test; TA1535/pSK1002, TGA medium; 0.001 mg/mL, 4 h, with: rat liver S9).
The survival rate of `[Cl-].[Cl-].[Pt+2].[Ru+2].c1ccc(-c2nc3ccccc3nc2-c2ccccn2)nc1.c1cnc2c(c1)ccc1cccnc12.c1cnc2c(c1)ccc1cccnc12` is reported as 86.7 ± 1.9% (Danio rerio; embryos; 15 µM, 96 h).
`COc1ccc(C[C@H](NC(=O)[C@H](C)NC(=O)CN2CCOCC2)C(=O)N[C@@H](Cc2ccccc2)C(=O)C2(C)CO2)cc1` (stereo in doubt) has a selectivity ratio of greater than 4560 (Plasmodium falciparum; 3D7, artemisinin-sensitive; reference: HEK-293T CC50 over IC50).
For `[Cl-].[Cl-].[Pt+2].[Ru+2].c1ccc(-c2nccnc2-c2ccccn2)nc1.c1cnc2c(c1)ccc1cccnc12.c1cnc2c(c1)ccc1cccnc12`, the survival rate was 100% (Danio rerio; embryos; 30 µM, 0 h).
For `O=[N+]([O-])c1ccc(NC2CCNCC2)c(C(F)(F)F)c1`, the induction factor was 0.6 (Salmonella typhimurium; genotoxicity, SOS/umu test; TA1535/pSK1002; 0.063 mg/mL, 4 h, with S9, full range).
For `CC(=O)N1CCC(C(=O)N2CCN3C(=O)c4cc(-c5ccccc5)ccc4NC(=O)C3C2)CC1` (stereo not drawn), “revertants per plate” read 25.5 (Salmonella typhimurium; TA98; 50 µg/plate).

Excerpt of the above:
With `O=[N+]([O-])c1ccc(N2CCC(NCCC(O)c3ccc(F)c4ccccc34)CC2)c(C(F)(F)F)c1` (stereo not drawn) the survival was 108% (Salmonella typhimurium; SOS/umu test; TA1535/pSK1002; 0.001 mg/mL, 4 h, without S9, lower range).
